Experimental data pooled from the literature.
Each line is one published result; not all experiments were run side by side. Numbers after ± are the reported error.

Compound | assay | system | conditions | scale | inhibition [%]
NCC(=O)Nc1cncc(-c2nn3c(=O)cc(N4CCNCC4)nc3s2)c1 | ADP-induced platelet aggregation, light transmission aggregometry | human, stable CAD on aspirin, ex vivo platelets | subcutaneous, 0.04 mg/kg, 240 min post-dose, median value, added: ADP 20 µM | – | 0
CC[C@@H]1[C@H](F)C(=O)N[C@@H]1COc1nccc2cc(C(N)=O)c(OC)cc12 | ATP-site probe binding, ActivX profiling, item: MARK2, MARK3 | THP-1 cell lysate | 0.2 mM, Lys2 site | – | 2.7
O=C1Nc2ccccc2C1=Cc1ccccn1 | platelet aggregation, inhibitor | platelet-rich plasma | 100 µM, added: ADP 5 µM | – | 75.6
CSCCNc1nc(SCCC(F)(F)F)nc2c1ncn2[C@@H]1O[C@H](COP(=O)(O)OP(=O)(O)C(Cl)(Cl)P(=O)(O)O)[C@@H](O)[C@H]1O | platelet aggregation, light transmission aggregometry | human patients, platelet-rich plasma | dose not given, 4 to 6 h, added: TRAP 5 µM | – | 31.2 ± 32.1
CN(C)c1ncnc2c1ncn2[C@@H]1O[C@H](CCl)[C@@H](NC(=O)[C@H](CSC(c2ccccc2)c2ccccc2)NC(=O)OC(C)(C)C)[C@H]1O | protein synthesis, item: GFP | human cell-free translation | 25 µM | – | 3
COc1cc(C(=O)NS(=O)(=O)c2ccccc2C)ccc1Cc1cn(C)c2ccc(NC(=O)OC3CCCC3)cc12 | P-selectin exposure, flow cytometry, item: P-selectin | human platelet-rich plasma | 3 µM, added: CRP 5 µg/mL | – | 5
CN[C@@H]1COc2c(S(=O)(=O)NC(=O)Nc3c4c(cc5c3CCC5)CCC4)cnn2C1 | item: IL-1β | human participants, whole blood ex vivo | 900 mg single dose, 336 h, added: LPS/ATP | reference: baseline | 6
O=C1O[C@H]([C@@H](O)CO)C(O)=C1O | hydroxyl radical scavenging | – | 160 µM | – | 59.6
